# Published values gathered from unrelated publications.
# Each line is one published result; not all experiments were run side by side.
Compound,target or system,assay,system,setting,scale,quantity,value
CC(C)[C@]12O[C@H]1[C@@H]1O[C@]13[C@]1(O[C@H]1C[C@H]1c4c(C(=O)c5ccccc5)oc(OC(=O)c5ccccc5)c4CC[C@@]13C)[C@@H]2O,AML patient cells,"apoptosis, Annexin V flow cytometry",,"24 h, added: MS-5 stromal co-culture",,EC50,0.0406 µM
CC/C=C\C/C=C\C/C=C\C/C=C\C/C=C\C/C=C\CCC(=O)Nc1ccn(C2OC(CO)C(O)C2(F)F)c(=O)n1 (stereo not drawn),UO-31,NCI60 screen,,,,CC50,37.9 µM
CC[C@@H]1CN2CCc3c([nH]c4cccc(OC)c34)[C@@H]2C[C@@H]1/C(=C\OC)C(=O)OC,rabbit anti-mitragynine polyclonal IgG,competitive indirect ELISA,,salt 0.17 M,,IC50,0.608 µg/mL
CC(C)CC(C(=O)N1CC2(CC1C#N)C(=O)Nc1ccccc12)N(C)C(=O)c1cc2c(F)cc(F)c(F)c2[nH]1 (stereo not drawn),human cysteine proteases,inhibitor,,,,IC50,≥ 2 µM
O=C(O)CC[C@H](NC(=O)N[C@@H](CCCCNC(=O)[C@H](Cc1ccc2ccccc2c1)NC(=O)[C@H]1CC[C@H](CNC(=O)CNC(=O)CNC(=O)CNC(=O)CN2CCN(CC(=O)O)CCN(C(CCC(=O)NCCC[P+](c3ccccc3)(c3ccccc3)c3ccccc3)C(=O)O)CCN(CC(=O)O)CC2)CC1)C(=O)O)C(=O)O (stereo partly drawn) [terbium-161 labelled],PC-3 PIP,,,concentration not given,,γ-H2AX foci per nucleus,39
CC(C)C[C@H](NC(=O)[C@H](CO)NC(=O)[C@H](CCCNC(=N)N)NC(=O)[C@H](CCCCN)NC(=O)[C@@H](NC(=O)[C@@H](NC(=O)CNC(=O)[C@H](CCCNC(=N)N)NC(=O)[C@H](Cc1c[nH]cn1)NC(=O)[C@H](Cc1c[nH]c2ccccc12)NC(=O)[C@H](Cc1ccccc1)NC(=O)[C@H](Cc1c[nH]cn1)NC(=O)[C@H](Cc1ccc(O)cc1)NC(=O)[C@@H](N)Cc1ccc(O)cc1)C(C)C)[C@@H](C)O)C(=O)N[C@@H](CO)C(=O)N1CCC[C@H]1C(=O)N[C@@H](Cc1c[nH]cn1)C(=O)N[C@@H](CCCNC(=N)N)C(=O)N1CCC[C@H]1C(=O)N[C@@H](CCCNC(=N)N)C(=O)N[C@@H](Cc1c[nH]cn1)C(=O)N[C@@H](CO)C(=O)N[C@@H](CCCNC(=N)N)C(=O)O,"LPS, Escherichia coli 0111:B4",isothermal titration calorimetry,,"pH 7, 37 °C",,Kd,7.09 µM
CC[C@H]1OC(=O)[C@H](C(C)C)NC(=O)[C@H](C)OC(=O)[C@@H](C(C)C)NC(=O)[C@@H](C(C)C)OC(=O)[C@H](C(C)C)NC(=O)[C@H](C)OC(=O)[C@@H](C(C)C)NC(=O)[C@@H](C(C)C)OC(=O)[C@H](C(C)C)NC(=O)[C@H](C)OC(=O)[C@@H](C(C)C)NC1=O,U-87 MG,PI staining flow cytometry,,"0.8 µM, 12 h",,G0/G1 phase cells,81.9%
CC(C)CS[C@H]1[C@H](O)[C@@H](N)[C@@H](O[C@H]2[C@H](O[C@@H]3O[C@H](CO)[C@@H](O[C@H]4O[C@@H](CN)[C@@H](O)[C@H](O)[C@H]4N)[C@H]3O)[C@@H](O)[C@H](N)C[C@@H]2N)O[C@@H]1CO,"bacterial hybrid ribosome, human mitochondrial A site",cell-free translation,,,reference: mitochondrial hybrid over wild-type bacterial,selectivity ratio,1800
CC(C)C1=C(OC(=O)Cc2ccccc2)C(=O)C2=C(C=C[C@H]3C(C)(C)CCC[C@]23C)C1=O,,"oxygen radical absorbance capacity, fluorometric",,,,ORAC,0.55 Trolox equivalents
CN(C)CCc1c[nH]c2ccc(Cl)cc12,,,"mouse, prefrontal cortex","intraperitoneal, 10 mg/kg, 30 min",,Egr1 mRNA level,increased
CC(C)[C@H](NC(=O)CNC(=O)[C@H](CCCNC(=N)N)NC(=O)[C@H](Cc1c[nH]cn1)NC(=O)[C@H](Cc1c[nH]c2ccccc12)NC(=O)[C@H](Cc1ccccc1)NC(=O)[C@H](Cc1c[nH]cn1)NC(=O)[C@H](Cc1ccc(O)cc1)NC(=O)[C@@H](N)Cc1ccc(O)cc1)C(=O)N[C@H](C(=O)N[C@@H](CCCCN)C(=O)N[C@@H](CCCNC(=N)N)C(=O)O)[C@@H](C)O,"LPS, Escherichia coli 0111:B4",isothermal titration calorimetry,,"pH 7, 37 °C",,Kd,19 µM
C/C1=C\CC[C@@]2(C)O[C@H]2[C@H]2OC(=O)C(C)[C@@H]2CC1 (stereo partly drawn),U-87 MG,"cell growth or viability, resazurin",,,,IC50,> 500 µM
COc1ccc(-n2cc(C(=O)N3C[C@]4(OC(=O)c5ccccc5NC(C)=O)CC[C@H](OC)[C@@]56[C@@H]4C[C@@H]([C@@H]35)[C@@]3(O)C[C@H](OC)[C@H]4C[C@@H]6[C@]3(O)[C@H]4OC)nn2)cc1,,ELISA,"ICR mouse, LPS-induced lung injury, BALF","oral, 5, 10, 15 mg/kg",,TNF-alpha level,decreased
CCCCCc1cc(O)c2c(c1)OC(C)(C)C1CCC(C)=CC21 (stereo not drawn),,,"rabbit, α-chymotrypsin-induced glaucoma","topical, 0.8% w/v",,time to IOP return to baseline,≤ 2 h
COc1ccc(-c2ccn(CC[C@](C)(C(=O)NO)S(C)(=O)=O)c(=O)c2)c(F)c1,Stenotrophomonas maltophilia,"microbial growth, broth dilution",,clinical isolate,,MIC90,2 µg/mL
Nc1ccc(/C=C/C(=O)N2CCc3c(oc4c(-c5ccc(F)cc5)cc(-c5ccc(C(=O)N6CCC(F)(F)CC6)cn5)cc34)C2)cn1,MIA PaCa-2,"phosphorylation, Western blot, refers to: phospho-β-catenin",,72 h,,IC50,0.73 µM
CNc1nc(SC)nc2ccccc12,Moraxella catarrhalis,"microbial growth, broth dilution",1502,,,MIC,> 64 µM
CC[C@H](C)[C@H](NC(=O)[C@H](Cc1c[nH]c2ccccc12)NC(=O)[C@H](CCCNC(=N)N)NC(=O)[C@H](CCCCN)NC(=O)[C@H](CC(C)C)NC(=O)[C@H](CC(=O)O)NC(=O)[C@H](Cc1ccccc1)NC(=O)[C@H](C)NC(=O)[C@H](Cc1ccc(O)cc1)NC(=O)[C@H](CC(N)=O)NC(=O)[C@H](Cc1ccc(O)cc1)NC(=O)[C@H](CCCNC(=N)N)NC(=O)[C@H](Cc1ccc(O)cc1)NC(=O)[C@H](Cc1ccc(O)cc1)NC(=O)[C@@H](NC(=O)[C@H](CC(C)C)NC(=O)[C@H](C)NC(=O)[C@H](CC(N)=O)NC(=O)[C@H](Cc1ccc(O)cc1)NC(C)=O)[C@@H](C)CC)C(=O)N[C@@H](Cc1ccc(O)cc1)C(=O)N[C@@H](CC(C)C)C(N)=O,,refers to: HA-02 tetramer,"antigen-experienced tetramer+ CD4 T cells, healthy adults, HLA-DRB1*0101",dose not given,,α4β7+ CCR9+ cells,9.09%
COc1ccc2cc1Oc1ccc(cc1)C[C@H]1c3cc(c(OC)cc3CC[N@+]1(C)CCc1c[nH]c3ccccc13)Oc1c(OC)c(OC)cc3c1[C@H](C2)[N@@+](C)(CCc1c[nH]c2ccccc12)CC3,mixed-sequence 12-bp dsDNA,"DNA binding, ethidium bromide displacement","phosphate buffer, 10% DMSO","pH 7.2, 25 °C, dsDNA 10 µM, 10 mM NaCl, added: ethidium bromide 5 µM",,Stern-Volmer constant,27200 M⁻¹
CCCCCCCC(=O)NCC(=O)N[C@@H](CC(C)C)C(=O)N[C@@H](CC(C)C)C(=O)N[C@@H](CCCCN)C(=O)N[C@@H](CCCNC(=N)N)C(=O)N[C@H](C(=O)N[C@@H](CCCCN)C(=O)N[C@H](C(=O)N[C@@H](CC(C)C)C(=O)N[C@@H](CC(C)C)C(=O)NCCCC[C@H](NC(=O)[C@H](CC(C)C)NC(=O)[C@H](CC(C)C)NC(=O)[C@@H](NC(=O)[C@H](CCCCN)NC(=O)[C@@H](NC(=O)[C@H](CCCNC(=N)N)NC(=O)[C@H](CCCCN)NC(=O)[C@H](CC(C)C)NC(=O)[C@H](CC(C)C)NC(=O)CNC(=O)CCCCCCC)[C@@H](C)CC)[C@@H](C)O)C(N)=O)[C@@H](C)O)[C@@H](C)CC,five bacterial species,bacterial growth,,,,geometric mean MIC,42.2 µM
CC(C)C(Cl)C(NC(=O)C(O)Cc1ccccc1)C(=O)N1C(C(=O)NCCC2=CCN(C(=N)N)C2)CC2CCC(OC3OCC(OS(=O)(=O)O)C(O)C3O)CC21 (stereo not drawn),trypsin,enzyme activity,,"20 min, pH 8, 37 °C",,IC50,0.112 µM

# For quick reference, copied from above:
Compound,target or system,assay,system,setting,scale,quantity,value
O=C(O)CC[C@H](NC(=O)N[C@@H](CCCCNC(=O)[C@H](Cc1ccc2ccccc2c1)NC(=O)[C@H]1CC[C@H](CNC(=O)CNC(=O)CNC(=O)CNC(=O)CN2CCN(CC(=O)O)CCN(C(CCC(=O)NCCC[P+](c3ccccc3)(c3ccccc3)c3ccccc3)C(=O)O)CCN(CC(=O)O)CC2)CC1)C(=O)O)C(=O)O (stereo partly drawn) [terbium-161 labelled],PC-3 PIP,,,concentration not given,,γ-H2AX foci per nucleus,39
CC(C)C[C@H](NC(=O)[C@H](CO)NC(=O)[C@H](CCCNC(=N)N)NC(=O)[C@H](CCCCN)NC(=O)[C@@H](NC(=O)[C@@H](NC(=O)CNC(=O)[C@H](CCCNC(=N)N)NC(=O)[C@H](Cc1c[nH]cn1)NC(=O)[C@H](Cc1c[nH]c2ccccc12)NC(=O)[C@H](Cc1ccccc1)NC(=O)[C@H](Cc1c[nH]cn1)NC(=O)[C@H](Cc1ccc(O)cc1)NC(=O)[C@@H](N)Cc1ccc(O)cc1)C(C)C)[C@@H](C)O)C(=O)N[C@@H](CO)C(=O)N1CCC[C@H]1C(=O)N[C@@H](Cc1c[nH]cn1)C(=O)N[C@@H](CCCNC(=N)N)C(=O)N1CCC[C@H]1C(=O)N[C@@H](CCCNC(=N)N)C(=O)N[C@@H](Cc1c[nH]cn1)C(=O)N[C@@H](CO)C(=O)N[C@@H](CCCNC(=N)N)C(=O)O,"LPS, Escherichia coli 0111:B4",isothermal titration calorimetry,,"pH 7, 37 °C",,Kd,7.09 µM
C/C1=C\CC[C@@]2(C)O[C@H]2[C@H]2OC(=O)C(C)[C@@H]2CC1 (stereo partly drawn),U-87 MG,"cell growth or viability, resazurin",,,,IC50,> 500 µM
